Assay results from different studies.
Every numbered part comes from another study and shows a few of its results, in no order.
Chain of UniProt Q9H2G2 (whole entry, looked up): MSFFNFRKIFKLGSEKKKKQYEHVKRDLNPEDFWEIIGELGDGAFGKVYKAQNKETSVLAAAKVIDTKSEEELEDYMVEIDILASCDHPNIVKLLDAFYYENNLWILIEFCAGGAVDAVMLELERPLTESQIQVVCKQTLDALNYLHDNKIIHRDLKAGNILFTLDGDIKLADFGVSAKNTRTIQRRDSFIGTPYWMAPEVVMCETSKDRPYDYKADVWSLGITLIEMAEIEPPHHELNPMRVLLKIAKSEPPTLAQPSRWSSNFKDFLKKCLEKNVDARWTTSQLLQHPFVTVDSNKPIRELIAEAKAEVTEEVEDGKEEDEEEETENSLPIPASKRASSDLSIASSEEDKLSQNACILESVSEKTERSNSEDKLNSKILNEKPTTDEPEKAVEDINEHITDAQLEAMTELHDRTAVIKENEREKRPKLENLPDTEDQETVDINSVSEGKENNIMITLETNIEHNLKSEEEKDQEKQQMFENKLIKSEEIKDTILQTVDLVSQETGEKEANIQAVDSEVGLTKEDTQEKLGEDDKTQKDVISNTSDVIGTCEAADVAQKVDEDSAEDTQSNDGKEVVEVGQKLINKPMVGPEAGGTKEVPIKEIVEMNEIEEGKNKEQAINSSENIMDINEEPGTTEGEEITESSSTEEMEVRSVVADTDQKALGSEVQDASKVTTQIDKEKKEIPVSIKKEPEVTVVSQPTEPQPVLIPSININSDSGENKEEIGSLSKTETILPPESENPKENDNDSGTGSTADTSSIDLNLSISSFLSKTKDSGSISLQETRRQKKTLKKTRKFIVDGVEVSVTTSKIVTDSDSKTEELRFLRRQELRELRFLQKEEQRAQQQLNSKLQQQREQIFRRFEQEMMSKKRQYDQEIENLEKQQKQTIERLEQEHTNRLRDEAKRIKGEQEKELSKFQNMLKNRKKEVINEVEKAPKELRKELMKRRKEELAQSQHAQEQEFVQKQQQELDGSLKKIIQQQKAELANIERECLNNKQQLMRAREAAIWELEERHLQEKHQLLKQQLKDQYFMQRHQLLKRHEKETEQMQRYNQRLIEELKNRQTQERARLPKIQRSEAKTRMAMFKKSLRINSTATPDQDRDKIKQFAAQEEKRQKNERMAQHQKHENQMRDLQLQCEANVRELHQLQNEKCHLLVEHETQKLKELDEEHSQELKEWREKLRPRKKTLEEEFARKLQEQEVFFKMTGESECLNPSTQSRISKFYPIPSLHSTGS
Chain of UniProt O95819 (whole entry, looked up): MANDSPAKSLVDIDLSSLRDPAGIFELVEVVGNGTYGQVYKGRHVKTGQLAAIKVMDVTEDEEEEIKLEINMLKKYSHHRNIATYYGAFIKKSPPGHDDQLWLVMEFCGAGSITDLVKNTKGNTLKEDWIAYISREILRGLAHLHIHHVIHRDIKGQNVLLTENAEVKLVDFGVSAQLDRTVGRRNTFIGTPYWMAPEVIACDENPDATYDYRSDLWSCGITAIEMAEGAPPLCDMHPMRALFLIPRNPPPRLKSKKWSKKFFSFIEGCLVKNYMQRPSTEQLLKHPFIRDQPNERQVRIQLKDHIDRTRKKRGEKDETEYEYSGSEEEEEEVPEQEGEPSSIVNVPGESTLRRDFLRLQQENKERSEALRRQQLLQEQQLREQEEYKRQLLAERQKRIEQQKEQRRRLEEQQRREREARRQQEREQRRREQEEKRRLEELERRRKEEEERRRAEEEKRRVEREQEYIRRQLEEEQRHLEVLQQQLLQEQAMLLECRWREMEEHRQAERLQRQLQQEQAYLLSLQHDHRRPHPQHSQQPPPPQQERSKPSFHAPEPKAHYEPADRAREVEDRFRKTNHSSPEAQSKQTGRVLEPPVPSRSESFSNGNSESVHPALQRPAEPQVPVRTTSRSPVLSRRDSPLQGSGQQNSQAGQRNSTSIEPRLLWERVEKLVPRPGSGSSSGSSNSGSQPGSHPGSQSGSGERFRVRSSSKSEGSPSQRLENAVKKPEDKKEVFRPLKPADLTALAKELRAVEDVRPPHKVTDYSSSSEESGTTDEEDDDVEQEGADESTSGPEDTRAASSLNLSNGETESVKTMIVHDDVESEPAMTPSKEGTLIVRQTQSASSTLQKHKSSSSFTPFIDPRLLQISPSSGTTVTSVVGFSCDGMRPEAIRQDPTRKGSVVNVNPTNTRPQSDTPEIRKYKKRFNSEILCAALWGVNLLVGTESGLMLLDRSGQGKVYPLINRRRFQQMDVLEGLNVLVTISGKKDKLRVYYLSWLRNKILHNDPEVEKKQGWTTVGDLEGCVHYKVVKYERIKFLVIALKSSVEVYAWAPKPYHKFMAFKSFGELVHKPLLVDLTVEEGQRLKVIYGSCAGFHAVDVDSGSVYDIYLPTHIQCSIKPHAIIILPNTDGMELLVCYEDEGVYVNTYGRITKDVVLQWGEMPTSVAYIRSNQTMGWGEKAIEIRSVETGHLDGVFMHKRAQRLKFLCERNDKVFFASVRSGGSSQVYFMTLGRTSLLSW
Chain of UniProt P49759 (whole entry, looked up): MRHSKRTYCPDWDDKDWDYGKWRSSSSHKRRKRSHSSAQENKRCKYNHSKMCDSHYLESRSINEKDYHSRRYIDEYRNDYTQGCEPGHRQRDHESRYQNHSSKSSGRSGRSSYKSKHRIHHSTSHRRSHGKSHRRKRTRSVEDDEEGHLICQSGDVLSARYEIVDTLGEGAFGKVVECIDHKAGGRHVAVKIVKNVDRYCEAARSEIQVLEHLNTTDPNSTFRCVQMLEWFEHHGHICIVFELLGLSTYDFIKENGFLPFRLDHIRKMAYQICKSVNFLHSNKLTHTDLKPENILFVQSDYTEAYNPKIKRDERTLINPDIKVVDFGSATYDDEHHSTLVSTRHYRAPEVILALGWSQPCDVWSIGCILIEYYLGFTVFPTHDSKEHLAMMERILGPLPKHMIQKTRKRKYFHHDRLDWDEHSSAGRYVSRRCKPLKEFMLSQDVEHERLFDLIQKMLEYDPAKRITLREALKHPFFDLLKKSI
Chain of UniProt Q2M2I8 (whole entry, looked up): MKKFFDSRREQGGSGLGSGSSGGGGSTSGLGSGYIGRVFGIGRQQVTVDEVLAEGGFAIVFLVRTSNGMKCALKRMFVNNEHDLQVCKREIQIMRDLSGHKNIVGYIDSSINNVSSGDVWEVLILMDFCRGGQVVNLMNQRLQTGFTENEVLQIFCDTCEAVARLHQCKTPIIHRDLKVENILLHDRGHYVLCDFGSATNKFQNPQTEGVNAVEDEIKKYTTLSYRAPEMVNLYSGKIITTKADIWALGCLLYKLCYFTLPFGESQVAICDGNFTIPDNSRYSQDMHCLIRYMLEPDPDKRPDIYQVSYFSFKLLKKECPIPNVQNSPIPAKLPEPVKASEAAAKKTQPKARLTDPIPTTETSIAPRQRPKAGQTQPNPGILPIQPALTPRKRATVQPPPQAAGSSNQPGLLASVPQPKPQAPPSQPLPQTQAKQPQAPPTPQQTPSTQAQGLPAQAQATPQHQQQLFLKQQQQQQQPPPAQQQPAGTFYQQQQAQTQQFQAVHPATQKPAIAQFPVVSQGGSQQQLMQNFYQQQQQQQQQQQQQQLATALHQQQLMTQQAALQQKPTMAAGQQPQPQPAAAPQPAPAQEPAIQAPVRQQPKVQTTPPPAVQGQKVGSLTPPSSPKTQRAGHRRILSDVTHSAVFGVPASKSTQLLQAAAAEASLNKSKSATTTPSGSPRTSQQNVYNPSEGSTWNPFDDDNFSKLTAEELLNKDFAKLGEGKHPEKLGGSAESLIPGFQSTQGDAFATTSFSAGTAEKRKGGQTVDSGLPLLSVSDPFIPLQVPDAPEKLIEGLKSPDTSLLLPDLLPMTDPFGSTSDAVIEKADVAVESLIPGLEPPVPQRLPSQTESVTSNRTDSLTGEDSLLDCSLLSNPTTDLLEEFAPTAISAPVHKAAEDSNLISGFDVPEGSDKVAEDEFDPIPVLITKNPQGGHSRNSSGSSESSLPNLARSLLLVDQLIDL
Chain of UniProt P51956 (whole entry, looked up): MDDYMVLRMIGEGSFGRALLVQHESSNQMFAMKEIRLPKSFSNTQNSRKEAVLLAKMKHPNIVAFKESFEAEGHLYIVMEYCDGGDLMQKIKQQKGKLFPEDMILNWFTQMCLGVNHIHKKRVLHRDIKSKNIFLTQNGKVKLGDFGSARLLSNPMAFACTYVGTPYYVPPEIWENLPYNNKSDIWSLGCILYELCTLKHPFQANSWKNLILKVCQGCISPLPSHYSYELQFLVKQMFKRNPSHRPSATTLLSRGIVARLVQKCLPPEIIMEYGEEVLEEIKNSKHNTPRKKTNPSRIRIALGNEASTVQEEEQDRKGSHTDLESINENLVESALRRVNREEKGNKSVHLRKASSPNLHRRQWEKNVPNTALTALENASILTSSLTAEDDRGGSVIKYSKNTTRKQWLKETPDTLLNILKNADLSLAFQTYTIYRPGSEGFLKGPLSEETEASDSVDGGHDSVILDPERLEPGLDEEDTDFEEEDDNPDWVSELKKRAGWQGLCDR

Study 1 — technique: competition with immobilised ligand; tested at: 1 µM; endpoint: remaining binding
SMILES: COc1ccc2c(c1)O[C@@H](c1ccc(OC)c(OC)c1)C[C@H]2NC(=O)C1(c2ccc3c(c2)OC(F)(F)O3)CC1
Dual specificity protein kinase CLK1 (CLK1, Homo sapiens, UniProt P49759); cell-free assay: 100%
Cyclin-dependent kinase 11A (CDK11A, Homo sapiens, UniProt Q9UQ88); binding: 100%
Serine/threonine-protein kinase DCLK1 (DCLK1, Homo sapiens, UniProt O15075); cell-free assay: 82%
Serine/threonine-protein kinase ULK1 (ULK1, Homo sapiens, UniProt O75385); cell-free assay: 75%
AP2-associated protein kinase 1 (AAK1, Homo sapiens, UniProt Q2M2I8); cell-free assay: 91%
Mitogen-activated protein kinase kinase kinase kinase 4 (MAP4K4, Homo sapiens, UniProt O95819); cell-free assay: 100%

Study 2 — tested at: 1 µM; endpoint: remaining binding
Compound: COc1ccc2[nH]c3c4[nH]c5ccc(OC)cc5c4c4c(c3c2c1)C(=O)NC4=O
BDNF/NT-3 growth factors receptor (NTRK2, Homo sapiens, UniProt Q16620); competitive binding; TRKB: 59%
Serine/threonine-protein kinase Nek3 (NEK3, Homo sapiens, UniProt P51956); competitive binding panel; baseline: vehicle: 67%
cGMP-dependent protein kinase 2 (PRKG2, Homo sapiens, UniProt Q13237); competitive binding panel; baseline: vehicle: 0.9%
Phosphatidylinositol 4,5-bisphosphate 3-kinase catalytic subunit beta isoform (PIK3CB, Homo sapiens, UniProt P42338); competitive binding panel; baseline: vehicle: 88%
STE20-like serine/threonine-protein kinase (SLK, Homo sapiens, UniProt Q9H2G2); competitive binding panel; baseline: vehicle: 96%
Myosin light chain kinase (MYLK3, Homo sapiens, UniProt Q32MK0); competitive binding; MLCK: 16%

Study 3 — technique: LC-MS/MS; medium: plasma; endpoint: plasma concentration
Structure (SMILES): COc1ccc(-c2c(Nc3ccccn3)[nH]c3c(C4=CCCCC4)c(-c4ccccc4)nn3c2=O)cc1
measured: methionine; human cancer patients; 200 mg BID, 2 h, median, cycle 1 day 200: 86400 ng/mL
measured: methionine; human cancer patients; QD, dose not given, 2 h, mean, cycle 1 day 50: 70700 ng/mL
human; oral, 200 mg twice daily, 6 h, geometric mean: 9740 ng/mL
measured: S-adenosylmethionine; human cancer patients; 50 mg QD, 2 h, median, cycle 1 day 50: 19.4 ng/mL
measured: S-adenosylmethionine; human cancer patients; 200 mg BID, 8 h, mean, cycle 1 day 200: 11.8 ng/mL
measured: S-adenosylmethionine; human cancer patients; 200 mg BID, 0 h, median, cycle 1 day 200: 12.6 ng/mL

Study 4 — read-out: enzyme activity; action: inhibitor; tested at: 0.5 µM; baseline: control; endpoint: remaining activity
Target: Calcium/calmodulin-dependent protein kinase kinase 2 (CAMKK2, Homo sapiens, UniProt Q96RR4)
Chain of UniProt Q96RR4 (whole entry, looked up): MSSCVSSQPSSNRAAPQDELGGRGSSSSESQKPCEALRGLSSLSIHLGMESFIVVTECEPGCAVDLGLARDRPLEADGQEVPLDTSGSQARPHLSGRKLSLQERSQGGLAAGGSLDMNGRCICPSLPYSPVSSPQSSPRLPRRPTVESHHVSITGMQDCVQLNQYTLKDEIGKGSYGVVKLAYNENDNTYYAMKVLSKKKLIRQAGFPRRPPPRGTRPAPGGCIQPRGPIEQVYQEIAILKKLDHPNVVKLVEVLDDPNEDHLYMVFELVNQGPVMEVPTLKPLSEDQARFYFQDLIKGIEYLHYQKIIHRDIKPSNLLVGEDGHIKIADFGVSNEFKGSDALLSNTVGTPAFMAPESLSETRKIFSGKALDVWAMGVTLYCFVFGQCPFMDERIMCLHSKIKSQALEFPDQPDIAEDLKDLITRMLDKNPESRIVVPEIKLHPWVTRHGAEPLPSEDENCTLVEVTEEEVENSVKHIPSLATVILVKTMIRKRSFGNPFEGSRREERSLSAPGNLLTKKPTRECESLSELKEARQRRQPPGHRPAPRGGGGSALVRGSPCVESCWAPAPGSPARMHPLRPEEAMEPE
OCC(O)CCON=C1C(c2c(O)[nH]c3ccccc23)=Nc2ccccc21 (stereo not shown): 26%
COc1cc2nccc(Oc3ccc(NC(=S)NC(=O)c4ccccc4C)cc3)c2cc1OC: 75%
CCOC(=O)c1c(C)[nH]c(/C=C2\C(=O)Nc3ccccc32)c1C: 90.8%
COc1ccc(C(=O)Nc2sc3c(c2C(N)=O)CCCC3)cc1OC: 96.9%
O=C(CCCc1ccc(-c2ccccc2F)cc1)Nc1ccc(O)cc1: 86.6%
O=C(Nc1cccc(Nc2cc(Nc3cccc(C(F)(F)F)c3)ncn2)c1)C1CC1: 98.5%
COc1cc2ncnc(Nc3ccc(Oc4ccccc4)cc3)c2cc1OC: 104%
C#Cc1cccc(Nc2ncnc3cc(OCCOC)c(OCCOC)cc23)c1: 97.1%
CC(C)[C@H](CO)Nc1nc(Nc2cc(N)cc(Cl)c2)c2ncn(C(C)C)c2n1: 33.2%
Nc1ccc2ncnc(NCCc3ccc(Oc4ccccc4)cc3)c2c1: 92.6%
Cc1cccc(-c2[nH]c(C(C)(C)C)nc2-c2ccc3c(c2)OCO3)n1: 96%
COc1cc2ncnc(Nc3ccc(F)c(Cl)c3)c2cc1OCCCN1CCOCC1: 103%
Cn1c2ccccc2c2c3c(c4c5ccccc5n(CCC#N)c4c21)CNC3=O: 3.88%
Nc1ncnc2n[nH]c(Nc3ccc(F)cc3)c12: 83.6%
N#CC(C#N)=C(N)/C(C#N)=C/c1ccc(O)cc1: 91.6%

Further values, each from its own experiment
CC(C)n1cnc(-c2ccc(F)cc2)c1-c1ncc(C(=O)Nc2ccc(N3CCN(C)CC3)cc2)[nH]1
patients with Nasopharyngitis (human, idiopathic pulmonary fibrosis; concentration not given, trial, all arms total): 0%

For quick reference, copied from above (study 3):
measured: methionine; human cancer patients; 200 mg BID, 2 h, median, cycle 1 day 200: 86400 ng/mL
measured: methionine; human cancer patients; QD, dose not given, 2 h, mean, cycle 1 day 50: 70700 ng/mL
human; oral, 200 mg twice daily, 6 h, geometric mean: 9740 ng/mL
measured: S-adenosylmethionine; human cancer patients; 50 mg QD, 2 h, median, cycle 1 day 50: 19.4 ng/mL
measured: S-adenosylmethionine; human cancer patients; 200 mg BID, 8 h, mean, cycle 1 day 200: 11.8 ng/mL
